{"data": "Experimental data gathered from unrelated publications", "note": "A part holds a random share of what one study measured. Substitutions count along the parent as printed."}
{"data": "Set 1", "target": "Interferon regulatory factor 3, full length, phosphomimetic (IRF3, Homo sapiens, UniProt Q14653, residues 1-427, S386D/S396D/S398D/S402D/T404D/S405D)", "technique": "protein-binding microarray", "form": "double-stranded DNA, one strand shown", "matrix": "in vitro", "tested at": "2540 nM top", "setting": "60-bp whole probe", "together with": "salmon DNA 0.4 mg/ml", "reference": "random background probes", "direction": "higher = stronger binding", "constant ends, left off below": "GCCTAGCAC … GTCTTGATTCGCTTGACGCTGCTG", "Target sequence (chain)": "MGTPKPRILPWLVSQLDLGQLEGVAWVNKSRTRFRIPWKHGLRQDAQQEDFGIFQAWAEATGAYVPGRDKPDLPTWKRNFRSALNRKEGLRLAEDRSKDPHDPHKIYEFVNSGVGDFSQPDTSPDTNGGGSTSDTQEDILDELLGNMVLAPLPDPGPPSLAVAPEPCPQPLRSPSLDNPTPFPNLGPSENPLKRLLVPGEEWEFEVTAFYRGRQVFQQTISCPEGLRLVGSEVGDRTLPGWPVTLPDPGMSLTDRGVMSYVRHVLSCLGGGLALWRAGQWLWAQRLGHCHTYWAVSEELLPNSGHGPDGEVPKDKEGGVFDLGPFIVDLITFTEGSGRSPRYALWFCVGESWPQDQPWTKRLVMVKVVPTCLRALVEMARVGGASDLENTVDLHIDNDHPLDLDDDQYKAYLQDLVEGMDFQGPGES"}
{"Strand": "TTAGGTATCGTTTTCGGTTAGTGCTAG", "fitted relative affinity [z-score]": 6.02}
{"Strand": "GACGAACTGGGTATCGGGACGTGCTAG", "fitted relative affinity [z-score]": 0.0495}
{"Strand": "GACGGTTTCTTTCTCCTGACGTGCTAG", "fitted relative affinity [z-score]": 4.9}
{"Strand": "GAGGAGGGGCTGTTACTCTCGTGCTAG", "fitted relative affinity [z-score]": -0.855}
{"Strand": "TTAGGTCTCGGTATCGGTTTGTGCTAG", "fitted relative affinity [z-score]": 3.93}
{"Strand": "TTAGTTCTCCTACTGCTTTAGTGCTAG", "fitted relative affinity [z-score]": 1.43}
{"Strand": "TTGGGTTTCGGTCTCGGTTAGTGCTAG", "fitted relative affinity [z-score]": 7.16}
{"Strand": "TTATATTTCAGTATCGATTAGTGCTAG", "fitted relative affinity [z-score]": 2.31}
{"Strand": "TTCTCTATTGCTTTCTCTTTGTGCTAG", "fitted relative affinity [z-score]": 1.91}
{"Strand": "TTAGATCTCAGAATGGATTAGTGCTAG", "fitted relative affinity [z-score]": 0.218}
{"Strand": "TTAGAACTGAGTATCGATGAGTGCTAG", "fitted relative affinity [z-score]": -0.199}
{"Strand": "ATGTCCTCCTCTCTCTTTCCGTGCTAG", "fitted relative affinity [z-score]": 1.4}
{"Strand": "TTAGGTTTCGGTTCCGGTTTGTGCTAG", "fitted relative affinity [z-score]": 11.5}
{"Strand": "GGCGGTATCCTTTTCCTGACGTGCTAG", "fitted relative affinity [z-score]": 7.59}
{"Strand": "TTAGGTCTCGGTCTCGGATAGTGCTAG", "fitted relative affinity [z-score]": 1.15}
{"Strand": "AACGGTTTCGGGTTTCGGGACGTGCTA", "fitted relative affinity [z-score]": 5.71}
{"Strand": "GTCCCCTGTCGGGAGGTCAGGTGCTAG", "fitted relative affinity [z-score]": 0.094}
{"data": "Set 2", "target": "CCND2, cyclin fold, Cln2 fusion (human)", "technique": "yeast growth competition, sequencing", "matrix": "yeast", "setting": "weak parent motif", "reference": "not given", "direction": "higher = stronger binding", "parent": "CDKN1A docking peptide (human); SKACRRLFGPVDS; partner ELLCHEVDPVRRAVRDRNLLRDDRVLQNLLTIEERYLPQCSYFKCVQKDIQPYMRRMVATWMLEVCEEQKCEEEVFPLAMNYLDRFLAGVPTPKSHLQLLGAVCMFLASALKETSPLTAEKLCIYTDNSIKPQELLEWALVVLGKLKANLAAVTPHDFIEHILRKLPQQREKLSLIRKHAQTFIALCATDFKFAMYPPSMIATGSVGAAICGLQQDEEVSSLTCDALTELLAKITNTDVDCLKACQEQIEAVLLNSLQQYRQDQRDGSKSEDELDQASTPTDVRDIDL"}
{"Change": "A3E", "normalised enrichment score": 0.297}
{"Change": "F8R", "normalised enrichment score": 0.0556}
{"Change": "C4Y", "normalised enrichment score": -0.513}
{"Change": "L7D", "normalised enrichment score": 0.32}
{"Change": "C4G", "normalised enrichment score": 0.078}
{"Change": "F8H", "normalised enrichment score": 0.284}
{"Change": "A3L", "normalised enrichment score": 0.0108}
{"Change": "P10F", "normalised enrichment score": -0.481}
{"Change": "L7I", "normalised enrichment score": -0.0952}
{"Change": "F8D", "normalised enrichment score": 0.346}
{"Change": "F8S", "normalised enrichment score": 0.31}
{"Change": "K2Y", "normalised enrichment score": 0.556}
{"data": "Set 3", "Molecule": "PhoQ, residues 284 288 289 292 302 303 SLANIV", "technique": "Sort-seq", "item": "YFP reporter", "matrix": "E. coli", "setting": "PhoQ-PhoP variant library", "together with": "10 µM Mg2+", "reference": "high Mg2+ state", "direction": "higher = stronger signaling"}
{"target": "PhoP, residues 12 14 15 18 19 SFCSL (Escherichia coli, UniProt P23836)", "fold induction": 18.3}
{"target": "PhoP, residues 12 14 15 18 19 AYFRS (Escherichia coli, UniProt P23836)", "fold induction": 1.47}
{"target": "PhoP, residues 12 14 15 18 19 HHYTI (Escherichia coli, UniProt P23836)", "fold induction": 20.1}
{"data": "Set 4", "target": "FOSL1, bZIP domain (human)", "technique": "DHFR protein complementation", "matrix": "yeast", "setting": "single substitutions, most at no-binding floor", "reference": "wild-type JUN-FOS pair", "direction": "higher = stronger binding", "parent": "JUN, bZIP domain (human); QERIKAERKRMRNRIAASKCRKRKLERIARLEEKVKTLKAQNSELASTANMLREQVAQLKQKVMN; partner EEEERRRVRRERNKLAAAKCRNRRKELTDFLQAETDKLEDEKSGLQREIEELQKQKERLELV"}
{"Change": "E44K", "binding fitness": "-0.391 natural log"}
{"Change": "K34V", "binding fitness": "-0.716 natural log"}
{"Change": "A46Y", "binding fitness": "-0.633 natural log"}
{"Change": "A57D", "binding fitness": "-0.452 natural log"}
{"Change": "A29Q", "binding fitness": "-0.498 natural log"}
{"Change": "R30M", "binding fitness": "-0.273 natural log"}
{"Change": "L45R", "binding fitness": "-1.38 natural log"}
{"note": "Excerpt of the above (set 1):"}
{"Strand": "TTAGGTATCGTTTTCGGTTAGTGCTAG", "fitted relative affinity [z-score]": 6.02}
{"Strand": "GACGAACTGGGTATCGGGACGTGCTAG", "fitted relative affinity [z-score]": 0.0495}
{"Strand": "GACGGTTTCTTTCTCCTGACGTGCTAG", "fitted relative affinity [z-score]": 4.9}
